Values quoted from earlier work as cited in several papers.
In brackets after ≈: the same amount, converted by molar mass.

| SMILES | tested on | assay | system | conditions | how to read | quantity | value |
| --- | --- | --- | --- | --- | --- | --- | --- |
| OCCN1CCN(CCC=C2c3ccccc3Sc3ccc(C(F)(F)F)cc32)CC1 | MCF7 | microarray, Connectivity Map, refers to: BHLHE40 mRNA | – | concentration not given, 6 h | reference: DMSO | fold change | 2.19 |
| CCn1cc(C(=O)O)c(=O)c2cc3c(cc21)OCO3 | DNA gyrase (gyrA/gyrB, Escherichia coli, UniProt P0AES4+P0AES6) | enzyme activity, inhibitor | – | – | – | IC50 | > 30 µM |
| O=P1(N(CCCl)CCCl)NCCCO1 (centres unmarked) | Cryptosporidium parvum | – | – | concentration not given | – | activity | inactive |
| C1=Cc2cccc3cccc1c23 | – | substrate | human liver microsomes | – | – | Km | 1.35 µM |
| Cc1ncc2n1-c1ccc(Cl)cc1C(c1ccccc1F)=NC2 | – | – | human liver microsomes | – | – | CLint | 70 µL/min/mg protein |
| CC(C)c1cccc(C(C)C)c1O | Cryptosporidium parvum | – | – | concentration not given | – | activity | inactive |
| Cc1nnc2n1-c1ccc(Cl)cc1C(c1ccccc1Cl)=NC2 | CYP3A5 | substrate, refers to: 4-hydroxy metabolite formation | – | – | – | Km | 107 µM |
| c1ccc2c(c1)ccc1c3ccccc3ccc21 | – | – | – | experimental mean | – | water solubility | 0.012 µM (≈ 2.74 ng/mL) |

Repeated from above:
| SMILES | tested on | assay | system | conditions | how to read | quantity | value |
| --- | --- | --- | --- | --- | --- | --- | --- |
| CCn1cc(C(=O)O)c(=O)c2cc3c(cc21)OCO3 | DNA gyrase (gyrA/gyrB, Escherichia coli, UniProt P0AES4+P0AES6) | enzyme activity, inhibitor | – | – | – | IC50 | > 30 µM |
